Experimental data collected from several papers.
Compare with care: the assays were run in different laboratories.
USP51: Ubiquitin carboxyl-terminal hydrolase 51 (USP51, Homo sapiens, UniProt Q70EK9)
UniProt Q70EK9, sequence (whole entry, looked up): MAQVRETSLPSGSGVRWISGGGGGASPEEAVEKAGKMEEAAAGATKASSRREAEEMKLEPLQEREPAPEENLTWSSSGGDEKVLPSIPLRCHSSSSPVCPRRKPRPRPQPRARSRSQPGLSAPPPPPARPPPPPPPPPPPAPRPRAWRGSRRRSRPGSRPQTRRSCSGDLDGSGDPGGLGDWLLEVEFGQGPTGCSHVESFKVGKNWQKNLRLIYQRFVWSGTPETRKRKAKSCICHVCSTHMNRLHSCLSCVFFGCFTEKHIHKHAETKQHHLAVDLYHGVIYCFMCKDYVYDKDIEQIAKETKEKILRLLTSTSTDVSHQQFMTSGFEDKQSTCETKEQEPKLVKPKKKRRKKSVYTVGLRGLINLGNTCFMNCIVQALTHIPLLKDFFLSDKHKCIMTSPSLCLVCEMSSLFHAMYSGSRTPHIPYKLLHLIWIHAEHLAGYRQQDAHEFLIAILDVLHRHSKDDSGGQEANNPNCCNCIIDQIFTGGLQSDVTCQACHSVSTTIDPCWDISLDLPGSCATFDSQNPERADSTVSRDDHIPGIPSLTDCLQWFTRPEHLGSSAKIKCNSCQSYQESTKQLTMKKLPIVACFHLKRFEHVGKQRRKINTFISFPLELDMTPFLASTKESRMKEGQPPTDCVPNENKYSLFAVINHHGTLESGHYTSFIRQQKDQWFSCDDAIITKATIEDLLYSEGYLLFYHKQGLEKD
SLC6A4: Sodium-dependent serotonin transporter (SLC6A4, Homo sapiens, UniProt P31645)
UniProt P31645, sequence (whole entry, looked up): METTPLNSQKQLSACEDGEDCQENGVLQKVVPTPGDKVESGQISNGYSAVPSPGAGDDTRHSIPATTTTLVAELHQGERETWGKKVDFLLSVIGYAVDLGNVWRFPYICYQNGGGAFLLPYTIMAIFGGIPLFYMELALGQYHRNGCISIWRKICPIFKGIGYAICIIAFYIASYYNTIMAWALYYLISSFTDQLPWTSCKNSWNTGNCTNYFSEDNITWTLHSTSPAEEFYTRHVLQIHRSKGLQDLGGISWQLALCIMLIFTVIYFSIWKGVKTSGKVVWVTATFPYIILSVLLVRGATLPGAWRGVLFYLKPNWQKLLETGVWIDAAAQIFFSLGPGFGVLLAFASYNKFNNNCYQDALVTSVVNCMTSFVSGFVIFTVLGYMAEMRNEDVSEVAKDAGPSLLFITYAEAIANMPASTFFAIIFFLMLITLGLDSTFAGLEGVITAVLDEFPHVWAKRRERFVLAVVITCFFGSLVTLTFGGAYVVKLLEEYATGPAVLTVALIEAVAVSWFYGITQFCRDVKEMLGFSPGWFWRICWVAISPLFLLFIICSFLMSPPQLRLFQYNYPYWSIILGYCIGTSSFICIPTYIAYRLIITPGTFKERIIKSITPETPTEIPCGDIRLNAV
GSK3B: Glycogen synthase kinase-3 beta (GSK3B, Homo sapiens, UniProt P49841)
UniProt P49841, sequence (whole entry, looked up): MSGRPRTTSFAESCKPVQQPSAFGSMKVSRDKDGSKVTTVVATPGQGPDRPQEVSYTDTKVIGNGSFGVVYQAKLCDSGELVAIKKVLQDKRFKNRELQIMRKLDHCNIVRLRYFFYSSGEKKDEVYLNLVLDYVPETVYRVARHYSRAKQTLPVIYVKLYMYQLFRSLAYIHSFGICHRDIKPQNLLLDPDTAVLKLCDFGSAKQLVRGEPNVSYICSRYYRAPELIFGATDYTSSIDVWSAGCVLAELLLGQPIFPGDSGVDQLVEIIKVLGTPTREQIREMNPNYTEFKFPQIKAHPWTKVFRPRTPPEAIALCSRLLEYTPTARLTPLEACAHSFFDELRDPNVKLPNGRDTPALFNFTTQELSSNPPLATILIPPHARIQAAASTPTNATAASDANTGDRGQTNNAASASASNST
UniProt Q13547, sequence (whole entry, looked up): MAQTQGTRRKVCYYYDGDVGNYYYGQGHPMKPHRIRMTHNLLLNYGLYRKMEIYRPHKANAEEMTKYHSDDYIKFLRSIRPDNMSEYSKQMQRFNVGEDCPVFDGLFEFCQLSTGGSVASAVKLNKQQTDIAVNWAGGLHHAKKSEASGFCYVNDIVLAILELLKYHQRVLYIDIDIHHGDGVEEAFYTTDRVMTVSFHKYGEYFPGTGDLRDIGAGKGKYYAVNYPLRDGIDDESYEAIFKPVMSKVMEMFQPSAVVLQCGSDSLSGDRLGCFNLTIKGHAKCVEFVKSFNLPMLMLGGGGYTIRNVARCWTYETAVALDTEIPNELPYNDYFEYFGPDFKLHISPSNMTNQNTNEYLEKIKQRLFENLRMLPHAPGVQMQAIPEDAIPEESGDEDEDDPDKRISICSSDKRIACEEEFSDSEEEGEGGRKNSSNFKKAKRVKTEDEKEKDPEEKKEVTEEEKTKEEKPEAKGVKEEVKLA
UniProt Q9H4B4, sequence (whole entry, looked up): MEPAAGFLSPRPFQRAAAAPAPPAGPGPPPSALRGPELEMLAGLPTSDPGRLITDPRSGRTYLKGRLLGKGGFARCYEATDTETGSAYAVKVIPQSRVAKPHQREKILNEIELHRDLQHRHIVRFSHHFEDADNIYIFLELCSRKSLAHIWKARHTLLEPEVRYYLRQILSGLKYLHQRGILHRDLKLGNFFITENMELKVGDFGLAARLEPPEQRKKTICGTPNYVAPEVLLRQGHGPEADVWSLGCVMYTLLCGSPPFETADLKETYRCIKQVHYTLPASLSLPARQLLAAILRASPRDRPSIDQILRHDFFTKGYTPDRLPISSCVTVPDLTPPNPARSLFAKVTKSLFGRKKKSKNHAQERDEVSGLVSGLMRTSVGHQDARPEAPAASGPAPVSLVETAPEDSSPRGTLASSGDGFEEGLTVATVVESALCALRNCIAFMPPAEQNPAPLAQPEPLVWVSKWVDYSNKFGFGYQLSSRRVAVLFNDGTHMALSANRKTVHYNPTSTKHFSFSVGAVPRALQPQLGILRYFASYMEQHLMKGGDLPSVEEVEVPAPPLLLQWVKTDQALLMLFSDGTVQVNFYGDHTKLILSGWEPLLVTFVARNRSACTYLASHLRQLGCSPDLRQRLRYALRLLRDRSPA
UniProt P25101, sequence (whole entry, looked up): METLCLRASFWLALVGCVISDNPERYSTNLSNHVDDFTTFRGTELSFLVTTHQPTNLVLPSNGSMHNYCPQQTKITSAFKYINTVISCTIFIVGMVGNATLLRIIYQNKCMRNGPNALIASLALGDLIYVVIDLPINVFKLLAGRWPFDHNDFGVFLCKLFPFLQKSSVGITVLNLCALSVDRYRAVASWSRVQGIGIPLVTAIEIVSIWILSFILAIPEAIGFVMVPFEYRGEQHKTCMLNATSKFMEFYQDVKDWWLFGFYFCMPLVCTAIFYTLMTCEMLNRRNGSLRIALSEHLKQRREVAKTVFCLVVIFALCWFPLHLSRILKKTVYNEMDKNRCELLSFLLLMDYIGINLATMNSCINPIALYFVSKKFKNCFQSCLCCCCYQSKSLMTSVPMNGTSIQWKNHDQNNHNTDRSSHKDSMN
UniProt Q9Y2H1, sequence (whole entry, looked up): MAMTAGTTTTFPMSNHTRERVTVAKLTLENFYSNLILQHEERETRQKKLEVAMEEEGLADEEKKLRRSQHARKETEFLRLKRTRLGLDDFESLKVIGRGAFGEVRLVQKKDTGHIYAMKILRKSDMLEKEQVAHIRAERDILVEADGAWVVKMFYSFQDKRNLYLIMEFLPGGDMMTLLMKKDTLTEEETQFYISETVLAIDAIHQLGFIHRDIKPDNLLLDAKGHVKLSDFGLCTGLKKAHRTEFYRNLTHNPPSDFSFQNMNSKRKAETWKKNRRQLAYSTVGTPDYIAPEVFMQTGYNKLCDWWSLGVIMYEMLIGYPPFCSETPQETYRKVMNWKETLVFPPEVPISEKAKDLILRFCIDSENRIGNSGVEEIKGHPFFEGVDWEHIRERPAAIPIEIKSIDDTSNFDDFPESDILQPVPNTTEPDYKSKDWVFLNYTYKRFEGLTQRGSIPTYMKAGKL
UniProt Q9UHD2, sequence (whole entry, looked up): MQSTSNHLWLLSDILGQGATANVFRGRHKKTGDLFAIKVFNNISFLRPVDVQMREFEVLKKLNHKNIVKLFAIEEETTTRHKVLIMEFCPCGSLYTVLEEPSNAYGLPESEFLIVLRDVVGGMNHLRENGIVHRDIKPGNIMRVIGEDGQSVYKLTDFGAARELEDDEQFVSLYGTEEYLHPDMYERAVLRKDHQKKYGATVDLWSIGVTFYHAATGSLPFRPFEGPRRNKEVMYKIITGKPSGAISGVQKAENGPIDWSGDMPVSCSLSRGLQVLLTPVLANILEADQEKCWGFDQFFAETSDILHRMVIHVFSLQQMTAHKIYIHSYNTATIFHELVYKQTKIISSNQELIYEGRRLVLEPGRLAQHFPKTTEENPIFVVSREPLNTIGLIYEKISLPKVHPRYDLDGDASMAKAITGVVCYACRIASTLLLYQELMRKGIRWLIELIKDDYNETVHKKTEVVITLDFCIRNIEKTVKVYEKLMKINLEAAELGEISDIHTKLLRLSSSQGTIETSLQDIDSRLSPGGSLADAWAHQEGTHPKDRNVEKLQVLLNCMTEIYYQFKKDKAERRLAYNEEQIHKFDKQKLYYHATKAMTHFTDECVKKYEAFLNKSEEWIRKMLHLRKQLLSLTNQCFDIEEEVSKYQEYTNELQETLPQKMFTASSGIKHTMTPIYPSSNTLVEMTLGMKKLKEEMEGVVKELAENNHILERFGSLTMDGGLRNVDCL
UniProt Q9UIK4, sequence (whole entry, looked up): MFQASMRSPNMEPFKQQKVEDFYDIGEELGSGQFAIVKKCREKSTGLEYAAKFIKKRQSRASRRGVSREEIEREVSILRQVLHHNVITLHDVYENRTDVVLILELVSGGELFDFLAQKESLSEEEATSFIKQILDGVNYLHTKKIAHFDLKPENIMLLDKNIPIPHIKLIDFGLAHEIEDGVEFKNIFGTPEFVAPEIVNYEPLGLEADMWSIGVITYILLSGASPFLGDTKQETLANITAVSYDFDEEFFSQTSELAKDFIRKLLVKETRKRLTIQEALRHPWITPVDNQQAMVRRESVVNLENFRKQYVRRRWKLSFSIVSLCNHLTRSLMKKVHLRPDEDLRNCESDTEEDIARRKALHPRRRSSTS

SMILES = CN1CC(Oc2cnc(C#N)cc2-c2ccn3nc(NC(=O)C4CC4)cc3c2)C1; tested on = PRKDC (Homo sapiens, UniProt P78527); assay = enzyme activity, inhibitor; setting = 1 µM; measurement = inhibition; value = 2%
SMILES = CCCCC(=O)Nc1ccc(-c2ccc3ncn(CCC)c(=O)c3c2)cn1; tested on = STK39 (Homo sapiens, UniProt Q9UEW8); assay = binding, competition with immobilised ligand; setting = 0.5 µM; measurement = remaining binding; value = 100%
SMILES = CC(C)c1[nH]c2nc(N)nn2c(=O)c1Cc1cc(Cl)cc(Cl)c1; tested on = CCR5 (Homo sapiens, UniProt P51681); assay = β-arrestin recruitment, antagonist; setting = 1 µM; measurement = inhibition; value = 89%
SMILES = NC/C(=C\F)COc1cccc(Cn2c(=S)[nH]c(=O)c3[nH]cnc32)c1; tested on = EDNRA (Homo sapiens, UniProt P25101); assay = ligand displacement, radioligand; setting = 10 µM; measurement = inhibition; value = < 50%
SMILES = COc1cccc(-c2n[nH]c(SCc3ccccn3)n2)c1OC; system = female Sprague-Dawley rat, plasma; setting = oral, 100 mg/kg, 24 h, single dose; measurement = concentration; value = 9.2 ng/mL
SMILES = C=CC(=O)N1CCC(COCC(=O)N2CCN(c3nc(-c4cnc(N)nc4C(F)F)nc(N4CCOC[C@@H]4C)n3)CC2)CC1; tested on = STK38L (Homo sapiens, UniProt Q9Y2H1); assay = binding, competition with immobilised ligand; setting = 1 µM; measurement = remaining binding; value = 73%
SMILES = COc1cc2ccnc(Cc3cccc(-c4ccccc4)c3)c2cc1OC; tested on = PDE10A (Homo sapiens, UniProt Q9Y233); assay = enzyme activity, inhibitor, FP; setting = 0.1 µM; measurement = inhibition; value = 45%
SMILES = CC(C)CCC[C@@H](C)[C@H]1CC[C@H]2[C@@H]3CC=C4C[C@@H](O)CC[C@]4(C)[C@H]3CC[C@]12C; tested on = USP51; assay = enzyme activity, inhibitor; setting = 5 µM; measurement = inhibition; value = 0%
SMILES = CNc1ncc2c(/C=C/C(=O)N3CCC(OC)CC3)nn(Cc3cccc(C(F)(F)F)c3)c2n1; tested on = DAPK2 (Homo sapiens, UniProt Q9UIK4); assay = enzyme activity, inhibitor, radiometric; setting = 1 µM; measurement = remaining activity; value = 96%
SMILES = CCOC(=O)[C@@]12C[C@@H]1[C@@H](n1cnc3c(NCCCCCCc4ccccc4)nc(C#Cc4ccc(Cl)s4)nc31)[C@H](O)[C@@H]2O; tested on = SLC6A4; assay = ligand displacement, radioligand; setting = 10 µM; measurement = inhibition; value = 10%
SMILES = C1=C/COCc2cc(ccc2OCCN2CCCC2)Nc2nccc(n2)-c2cccc(c2)COC/1; tested on = MAP3K13 (Homo sapiens, UniProt O43283); assay = cell-free assay; setting = 0.1 µM; measurement = remaining signal; value = 61%
SMILES = O=C(O)c1ccccc1; tested on = USP51; assay = enzyme activity, inhibitor; setting = 5 µM; measurement = inhibition; value = 12%
SMILES = COC(=O)c1ccc(O)cc1; tested on = PTGS2 (Homo sapiens, UniProt P35354); assay = enzyme activity, inhibitor; setting = 31.25 µg/mL; measurement = inhibition; value = 82.1%
SMILES = C=CCc1ccc(O)c(-c2cc(CC=C)ccc2O)c1; tested on = USP51; assay = enzyme activity, inhibitor; setting = 5 µM; measurement = inhibition; value = 0%
SMILES = CC(C)(C)c1cccc(OS(=O)(=O)Oc2cccc(C(=O)NO)c2)c1; tested on = HDAC1 (Homo sapiens, UniProt Q13547); assay = enzyme activity, inhibitor, fluorescence; setting = 10 µM; measurement = inhibition; value = 30%
SMILES = CC[C@H](C)[C@H](NC(=O)[C@H](CCC(N)=O)NC(=O)[C@H](CC(C)C)NC(=O)[C@H](CCSC)NC(=O)[C@H](CCCCN)NC(=O)[C@H](CO)NC(=O)[C@H](CO)NC(=O)[C@H](CCSC)NC(=O)[C@H](CC(C)C)NC(=O)[C@H](CC(N)=O)NC(=O)[C@@H](NC(=O)[C@@H](NC(=O)[C@H](CO)NC(=O)[C@H](CC(C)C)NC(=O)[C@H](CS)NC(=O)[C@H](CCCNC(=N)N)NC(=O)[C@H](CC(=O)O)NC(=O)[C@H](Cc1c[nH]c2ccccc12)NC(=O)[C@H](Cc1ccccc1)NC(=O)[C@H](C)NC(=O)[C@H](CCC(=O)O)NC(=O)[C@@H](N)CCCCN)C(C)C)[C@@H](C)CC)C(=O)N[C@@H](CC(N)=O)C(=O)N[C@@H](C)C(=O)O; tested on = GSK3B; assay = enzyme activity, inhibitor, radiometric; setting = 100 µM; measurement = inhibition; value = -8%
SMILES = CCCCCCCCCCCCCCCCCCCC(=O)O; tested on = USP51; assay = enzyme activity, inhibitor; setting = 5 µM; measurement = inhibition; value = 23%
SMILES = CC[C@H](C)[C@H](NC(=O)[C@H](CCC(N)=O)NC(=O)[C@@H](NC(=O)[C@H](CCSC)NC(=O)[C@H](CCCCN)NC(=O)[C@H](CO)NC(=O)[C@@H](NC(=O)[C@H](CCSC)NC(=O)[C@H](CC(C)C)NC(=O)[C@H](CC(N)=O)NC(=O)[C@@H](NC(=O)[C@@H](NC(=O)[C@H](CO)NC(=O)[C@H](CC(C)C)NC(=O)[C@H](C)NC(=O)[C@H](CCCNC(=N)N)NC(=O)[C@H](CCC(=O)O)NC(=O)[C@H](Cc1ccc(O)cc1)NC(=O)[C@H](Cc1ccccc1)NC(=O)[C@H](C)NC(=O)[C@H](CC(N)=O)NC(=O)[C@@H](N)CCCCN)[C@@H](C)CC)[C@@H](C)CC)[C@@H](C)O)C(C)C)C(=O)N[C@@H](CC(N)=O)C(=O)N[C@H](C(=O)O)C(C)C; tested on = GSK3B; assay = enzyme activity, inhibitor, radiometric; setting = 1 µM; measurement = inhibition; value = 1%
SMILES = Cc1cc([C@@H](C)Nc2ccccc2C(=O)O)c2nc(N3CCC(F)(F)CC3)c(C#N)c(=O)n2c1; tested on = PLK3 (Homo sapiens, UniProt Q9H4B4); assay = binding, competition with immobilised ligand; setting = 10 µM; measurement = remaining binding; value = 100%
SMILES = OC[C@H]1O[C@@H](Oc2ccc(O)cc2)[C@H](O)[C@@H](O)[C@@H]1O; tested on = USP51; assay = enzyme activity, inhibitor; setting = 5 µM; measurement = inhibition; value = 30%
SMILES = COc1cc(-c2cncc3c2CN(C)Cc2cc(N4CCNCC4)ccc2-3)cc(OC)c1OC; tested on = TBK1 (Homo sapiens, UniProt Q9UHD2); assay = enzyme activity, inhibitor; setting = 1 µM; measurement = remaining activity; value = 114%
SMILES = OC[C@@]12C[C@@H]1[C@@H](n1cnc3c(N[C@@H](C4CCC4)C4CC4)nc(C#Cc4ccc(Cl)s4)nc31)[C@H](O)[C@@H]2O; tested on = SLC6A4; assay = ligand displacement, radioligand; setting = 10 µM; measurement = inhibition; value = 23%

Excerpt of the above:
SMILES = CCCCCCCCCCCCCCCCCCCC(=O)O; tested on = USP51; assay = enzyme activity, inhibitor; setting = 5 µM; measurement = inhibition; value = 23%
SMILES = C=CC(=O)N1CCC(COCC(=O)N2CCN(c3nc(-c4cnc(N)nc4C(F)F)nc(N4CCOC[C@@H]4C)n3)CC2)CC1; tested on = STK38L (Homo sapiens, UniProt Q9Y2H1); assay = binding, competition with immobilised ligand; setting = 1 µM; measurement = remaining binding; value = 73%
